Assay results collected from several papers.
A part holds a random share of what one study measured.

Sample 1 — technique: protein binding microarray; form: double-stranded DNA, one strand shown; medium: in vitro; concentration: not given; relative to: not given; reading: higher = stronger binding
Target: Histone acetyltransferase KAT6A, both winged helices, GST fusion (KAT6A, Homo sapiens, UniProt Q92794, residues 1-181)
Setting: 8-mer, flanks averaged, mean of 2 arrays, mostly near background
Construct (chain): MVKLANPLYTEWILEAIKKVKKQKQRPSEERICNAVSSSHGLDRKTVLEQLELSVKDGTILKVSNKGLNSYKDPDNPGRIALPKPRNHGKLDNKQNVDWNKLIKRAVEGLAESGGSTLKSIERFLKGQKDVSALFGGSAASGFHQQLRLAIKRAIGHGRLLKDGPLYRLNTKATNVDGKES
| Sequence | E-score |
| --- | --- |
| ATATCAGA | -0.0285 |
| CGACATTC | -0.0482 |
| ACTCGCGA | 0.182 |
| AACGTTGG | 0.0041 |
| AGACTAGC | -0.102 |
| CAGGGCTC | -0.169 |
| GTTTACGA | -0.184 |
| CTAATAGC | -0.0822 |
| ACGACACT | -0.0469 |
| CCGTCATC | 0.172 |
| CGAACCTA | -0.0229 |
| GCCAAACA | -0.0249 |
| CCCCCTGA | -0.163 |
| ATAGCTCG | -0.005 |
| GATTCCAA | -0.148 |
| GGCTCCCC | -0.12 |
| ATCTGGCA | -0.143 |
| TATCGGAA | 0.0971 |
| CGATGGAC | 0.135 |
| AACTAAAG | -0.167 |

Sample 2 — technique: RNA Bind-n-Seq; form: RNA; medium: in vitro; concentration: not given; relative to: input RNA pool; reading: higher = stronger binding
Target: RING finger protein unkempt homolog, zinc fingers 1-6, GST-SBP tag (UNK, Homo sapiens, UniProt Q9C0B0, residues 30-357)
Chain of UniProt Q9C0B0 (30-357, looked up): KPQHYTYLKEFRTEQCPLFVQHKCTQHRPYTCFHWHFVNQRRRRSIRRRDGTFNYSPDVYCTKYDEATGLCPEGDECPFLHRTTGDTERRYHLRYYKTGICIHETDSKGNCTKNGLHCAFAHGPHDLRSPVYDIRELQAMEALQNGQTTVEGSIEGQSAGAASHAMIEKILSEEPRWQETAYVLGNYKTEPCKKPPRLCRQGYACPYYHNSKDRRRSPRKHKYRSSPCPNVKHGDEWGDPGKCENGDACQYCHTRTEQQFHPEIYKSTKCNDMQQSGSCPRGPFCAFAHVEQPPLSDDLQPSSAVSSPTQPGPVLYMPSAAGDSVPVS
Setting: RNA with constant flanks, human-mouse chimeric sites, ends assumed
Constant ends, left off below: GGGAGUUCUACAGUCCGACGAUC … CAACAGAGGAUUGAGCAUCA
| Sequence | bound/input enrichment |
| --- | --- |
| UUUCUACUGCAGCAAACCAUGCUACGAAUUAAGGAUCCUAAGAAGUCCCUGGAUUUUUAUACGAGGGUUCUUGGACUGACGCUAAUCCAGAAGCUUGACUUCCCUGCUAUGAAGUUCUCG | 0.0631 ratio |
| CUUUUUAAGAAGAUAUGUGAUGGGAUCUUUUAUACCCCUCAGUACUUAAAUCCUUCUGUAAUCAGCCUUUUGAAACAUAUGCUGCAGGUGGAUCCCAUGAAGAGGGCCGCAAUAAAAGAU | 0.326 ratio |
| UUGCUACUGACUCCCUGGGUUAAAUUCCUGUGGGAGUCAUACAGGCAGUGUUUGGACCUUCUUCGAAACAAUUCUAGAGUAGAGCGCCUUUACCAUGAUAUCGCCCAACAAGCUUUCAAA | 0.137 ratio |
| GUGCCCUUCUCGCUGCUGCGGAGCCCGAGCUGGGAACCAUUCCGGGACUGGUACCCUGCACACAGCCGCCUCUUCGAUCAAGCUUUCGGGCUGCCCCGGUUGCCCGAUGAGUGGUCGCAG | 0.0444 ratio |
| UAUAUCACCAAUGUUCUACAAAAUCCUGACUUGGCUCUGAGAAUGGCUGUGCGGAACAACUUAGCUGGUGCUGAAGAACUCUUUGCCCGGAAAUUUAAUGCUCUCUUUGCCCAGGGAAAC | 0.299 ratio |
| AGAUAUUAAGUAUUUUGAAAAAACUCGAACAGAUUUGUCAAGGGUAACCAGCUUGGAGUCUAGCAACUUGCCAAUGUGUUUACCAAUCUGGGGGCUUGUUUUUCUUUUCUUCUUUCAAAU | 0.276 ratio |
| AAAGAACCUCUCUCUGAAGAAGAGGAAGAAGACAAUGAUGAUGUUGAACCUAUUACUGAAUUUCGAUUUGUGCCCAGUGAUAAGUCAGCAUUGGAGGCGAUGUUCACAGCAAUGUGUGAG | 0.303 ratio |
| UCAGGAACUCAGACAAACAUGAAUGUAAAUGAAGUCAUUAGCAAUAGAGCAAUUGAAAUGUUAGGAGGUGAACUUGGCAGCAAGAAGCCUGUGCACCCCAAUGAUCAUGUUAACAAAAGC | 0.662 ratio |
| CGCUGGCCCAAGCUGAUGUAAAUGUUUGGCCUCCAUCUCUCAGGCACGUGUGCCUUCUCUUAGUCCCUGUUUUCGGGAUGUUAUGAAUCUCAGUACUGUUUGACAGAAGCACCAGCUUUG | 0.166 ratio |
| GCACUUGGGAAUGUAAUCAGCGCCUUGGGAGACAAGAGCAAGAGAGCCACCCAUGUCCCUUACAGAGACUCUAAGCUGACAAGACUCUUGCAGGAUUCCCUUGGGGGUAACAGCCAAACC | 0.101 ratio |
| CGGAGCCCUCCUCUCCCCCAGGCCCGAGAUAUAACCCACCAGUGCCUUUUGUCUUCCUGUCAGCUCUGUCAAUCACGCCUGUCCUCUCACGCCCACACUCCCCAGCCAAAGUGGGGAGGG | 0.969 ratio |

Sample 3 — technique: universal PBM; form: double-stranded DNA, one strand shown; medium: in vitro; concentration: not given; reading: higher = stronger binding
Target: Sal-like protein 4, full length isoform B (SALL4, Homo sapiens, UniProt Q9UJQ4-2, residues 1-616)
Setting: 8-mer, flanks averaged, mean of replicates
Target sequence (chain): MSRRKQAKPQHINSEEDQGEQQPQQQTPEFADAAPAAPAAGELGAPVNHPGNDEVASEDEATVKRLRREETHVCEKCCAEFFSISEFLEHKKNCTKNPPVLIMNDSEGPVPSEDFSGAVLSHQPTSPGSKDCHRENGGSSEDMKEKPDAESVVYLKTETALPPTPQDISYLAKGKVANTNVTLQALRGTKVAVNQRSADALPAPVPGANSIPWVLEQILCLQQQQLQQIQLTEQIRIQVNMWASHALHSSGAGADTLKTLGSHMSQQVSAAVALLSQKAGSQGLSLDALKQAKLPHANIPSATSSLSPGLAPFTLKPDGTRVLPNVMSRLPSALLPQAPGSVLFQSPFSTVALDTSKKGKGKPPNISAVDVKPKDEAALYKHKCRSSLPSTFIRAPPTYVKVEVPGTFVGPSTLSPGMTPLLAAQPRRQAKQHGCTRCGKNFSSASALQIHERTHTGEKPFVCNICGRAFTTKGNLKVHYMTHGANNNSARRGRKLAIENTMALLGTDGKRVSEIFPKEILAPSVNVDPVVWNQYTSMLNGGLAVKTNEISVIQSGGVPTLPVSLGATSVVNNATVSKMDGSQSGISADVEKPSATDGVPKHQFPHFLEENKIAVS
| Sequence | E-score |
| --- | --- |
| ATTTTCTA | 0.279 |
| CTTGTTAA | 0.0697 |
| CAATCTAC | -0.0772 |
| AACAAGAC | 0.137 |
| CACCTCAC | -0.158 |
| GCGCAACA | -0.04 |
| CAGTACAC | -0.0784 |
| ACCCGCCA | -0.0406 |
| AATGTTAT | 0.35 |
| CAGACGCA | -0.166 |
| CCTGGAGA | -0.192 |
| GTTACGGA | -0.161 |
| CCCCTTGA | -0.0827 |
| GTCCGCCA | -0.127 |
| AACTGAAC | -0.104 |
| TAAAGACA | 0.163 |
| CACCACGA | 0.0252 |
| ATTTCGGC | 0.0665 |
| CCCTAGAG | -0.251 |
| GCTGTTCA | 0.0865 |
| CAAAGCGA | -0.00302 |
| CAATTATG | 0.371 |
| AGATCACT | 0.122 |
| TACGCCCA | -0.043 |
| ACGATCTA | 0.0945 |

Sample 4 — technique: RNA Bind-n-Seq; form: RNA; medium: in vitro; concentration: 1 µM; setting: whole 134-nt RNA, ends assumed; with: 150 mM KCl; relative to: input library; reading: higher = stronger binding
Target: Ras GTPase-activating protein-binding protein 1, C-terminal RGG region (G3BP1, Homo sapiens, UniProt Q13283)
Chain of UniProt Q13283 (whole entry, looked up): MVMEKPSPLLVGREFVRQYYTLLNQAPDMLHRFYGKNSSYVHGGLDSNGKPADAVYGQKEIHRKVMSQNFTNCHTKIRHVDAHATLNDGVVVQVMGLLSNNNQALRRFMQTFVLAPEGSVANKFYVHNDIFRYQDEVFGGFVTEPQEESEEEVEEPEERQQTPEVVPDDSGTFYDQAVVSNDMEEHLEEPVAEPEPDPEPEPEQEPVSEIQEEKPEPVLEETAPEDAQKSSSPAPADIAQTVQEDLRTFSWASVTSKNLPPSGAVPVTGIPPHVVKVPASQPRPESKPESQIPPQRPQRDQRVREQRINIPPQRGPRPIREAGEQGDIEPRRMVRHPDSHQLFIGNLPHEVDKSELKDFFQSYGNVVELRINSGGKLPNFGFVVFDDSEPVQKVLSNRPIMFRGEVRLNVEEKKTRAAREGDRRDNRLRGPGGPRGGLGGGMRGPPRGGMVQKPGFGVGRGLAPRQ
Constant ends, left off below: GGGAGUUCUACAGUCCGACGAUC … UGGAAUUCUCGGGUGUCAAGG
| Sequence | log2 enrichment |
| --- | --- |
| ACCAUGCAGGUGGGCAUCUUUGGGAAGUGGGGCAAGGGGGGGAUAGGGAGGGGGGUAAGACUUUGGGAACAGGUGGUCCCAGGUCGUUUC | 2.3 |
| CUCAAGUCCUGUGCUACACAUCGUAUGUACCGAAUCGGUUUGGGUUUGGUUUGGAAAGUAUUAUGUUACGCCGUUCGGAUCUGCACUUCC | -0.923 |
| CAAGUCCUGUGCUACACAUCGUAUGUACCGAAUCGGGGAGGGGUUUGGGGUGGGGAAAGUAUUAUGUUACGCCGUUCGGAUCUGCACUUC | 2.93 |
| CUCAAGUCCUGUGCUACACAUCGUAUGUACCGAAUCGGGGCCGGGCCGGCCGGAAAGUAUUAUGUUACGCCGUUCGGAUCUGCACUUCCA | -0.883 |
| UUUCCCCUGGAGGGCGCCUCCAUCCUUGGAGGCCUAGUGCCGUCGGAGAGAGAGCGGGAGCCGCGGACAGAGACGCGUGCGCAAUUCGGA | -2.95 |
| CAAGUCCUGUGCUACACAUCGUAUGUACCGAAUCGGGUUUGGGUUUGGGUUUGGGGAAAGUAUUAUGUUACGCCGUUCGGAUCUGCACUU | 2.59 |
| GCAGGAAGUAAAAACAAAUGGAAAUGCUUCGGAUAGUGGCAGGGGUGCGGGUUGCUAAGGAAAGGGUGGGAUGGGAGUGGGUAAAGAGUU | 0.69 |
| AAAAAAAGUGUGUAUUAGGAGGAGAGAGAGGAAAAAAAGAGGAAAGAAGGAAAAAAAAAAGAAUUAAAAAAAAAAAAAAGAAAAACAGAA | -0.233 |
| UGCCUACGUAAUUUUUUAUCUUGAAAUAUUCAAAAUUAGGAGCCAGAUGACCAAGAUGCUCCAGAUGAACAUGAGUCGCCUCCACCUGAA | -1.17 |
| UCCUCAAGUCCUGUGCUACACAUCGUAUGUACCGAAUCGGGCGGCGGCGGGAAAGUAUUAUGUUACGCCGUUCGGAUCUGCACUUCCAGC | -1.07 |

For quick reference, copied from above (sample 1):
| Sequence | E-score |
| --- | --- |
| ATAGCTCG | -0.005 |
| GCCAAACA | -0.0249 |
| GTTTACGA | -0.184 |
| TATCGGAA | 0.0971 |
| AACTAAAG | -0.167 |
| GATTCCAA | -0.148 |
